Experimental data pooled from the literature.
Compare with care: the assays were run in different laboratories. “And” joins repeats or separate records; there may be more than shown. ± gives the spread as reported.
Cell line: HeLa

| SMILES | test | setting | how to read | measurement | value |
| --- | --- | --- | --- | --- | --- |
| C/C1=C/[C@H](C)C[C@H](C)OC(=O)C[C@H](c2ccc(O)cc2)NC(=O)[C@@H](Cc2ccc(O)cc2)N(C)C(=O)[C@H](C)NC(=O)[C@@H](C)C1 | cell growth or viability | – | – | CC50 | 48 µg/mL |
| CCC(=CCc1c(O)cc2c(c1O)C(=O)CC(c1ccc(OC)c(O)c1)O2)CC (stereo not drawn) | cytotoxicity, MTT | 48 h, together with: S9 fraction | – | log IC50 | 1.21 log µM |
| NC(=O)c1cccc(NC(=O)c2cc(-c3ccc(Cl)cc3)n(-c3ccccc3)n2)c1 | cell growth or viability | – | – | CC50 | > 100 µM |
| COc1ccc2nccc(CC[C@H]3OC[C@H](NC(=O)c4ccc(Cl)cc4)CO3)c2c1 | cytotoxicity | 24 h | – | IC50 | 17.7 µg/mL |
| NC[C@H]1O[C@H](O[C@H]2[C@H](O)[C@@H](O[C@H]3O[C@H](Cn4cc(CNC(=S)Nc5ccc6c(c5)C(=O)OC65c6ccc(O)cc6Oc6cc(O)ccc65)nn4)[C@@H](O)[C@H](N)[C@H]3O)[C@H](N)C[C@@H]2N)[C@H](O)[C@@H](O)[C@@H]1O | – | 5 µM, 24 h | – | cytotoxicity | 2 ± 0.3% |
| CCC(=CCc1c(O)cc2c(c1O)C(=O)CC(c1ccc(O)c(OC)c1)O2)CC (stereo not drawn) | cytotoxicity, MTT | 48 h, together with: S9 fraction | – | log IC50 | 1.06 log µM |
| N#Cc1cc(NC(=O)c2cc(-c3ccccc3)n(-c3ccccc3)n2)ccc1N1CCC2(CC1)CNC2 | cell growth or viability | – | – | CC50 | 6.3 µM |
| COc1ccc2ncc(F)c(C[C@H](O)[C@H]3OC[C@H](NCc4ccc(C)cc4)CO3)c2n1 | cytotoxicity | 24 h | – | IC50 | > 128 µg/mL |
| CC(C)C[C@H](NC(=O)[C@H](C)NC(=O)[C@H](Cc1ccccc1)NC(=O)c1ccc(C(C)(C)C)cc1)C(=O)N[C@@H](CCCCN(C)C1CC2CCC1C2)C(=O)N[C@@H](CO)C(=O)NCCOCCOCCCCCCCl (stereo partly drawn) | cell penetration, chloroalkane penetration | 4 h, chloroalkane-tagged compound | – | CP50 | 0.99 ± 0.27 µM |
| S=c1n(-c2ccccc2)c2c3ccccc3nc3[n+]2[n]1[Ir-3]12([S]3)([c]3ccccc3-c3sc4ccccc4[n+]31)[c]1ccccc1-c1sc3ccccc3[n+]12 | ICP-MS | 10 µM, 24 h, 37 °C | – | cellular iridium uptake | 3.4 ± 0.11 fmol/cell |
| COc1ccc2ncc(F)c(C[C@H](O)[C@H]3OC[C@H](NCc4ccc(Cl)c(Cl)c4)CO3)c2n1 | cytotoxicity | 24 h | – | IC50 | 10.7 µg/mL |
| CCC(=CCc1c(O)cc2c(c1O)C(=O)CC(c1ccccc1O)O2)CC (stereo not drawn) | cytotoxicity, MTT | 48 h, together with: S9 fraction | – | log IC50 | 1.56 log µM |
| Cc1ccc(S(=O)(=O)n2cc3c4c2C(=O)C(N)=CC4=NCC3)cc1 | cell growth or viability, MTT | 72 h | – | CC50 | 0.6 µM |
| CC(C)C[C@H](NC(=O)[C@@H](NC(=O)[C@H](Cc1ccccc1)NC(=O)c1ccc(C(C)(C)O)cc1)C1CCC1)C(=O)N[C@@H](CCCCN(C)C1CC2CCC1C2)C(=O)N[C@@H](CO)C(=O)NCCOCCOCCCCCCCl (stereo partly drawn) | cell penetration, chloroalkane penetration | 4 h, chloroalkane-tagged compound | – | CP50 | 2.5 ± 0.77 µM |
| CCC(=CCc1c(O)cc2c(c1O)C(=O)CC(c1ccc(OC)cc1O)O2)CC (stereo not drawn) | cytotoxicity, MTT | 48 h, together with: S9 fraction | – | log IC50 | 1.2 log µM |
| COc1ccc2nccc(CC[C@H]3OC[C@H](NC(=O)c4ccc(C(C)(C)C)cc4)CO3)c2c1 | cytotoxicity | 24 h | – | IC50 | > 128 µg/mL |
| CN1CCCNC(=O)c2cccc(c2)C(=O)NCCCN(C)CCCNc2cccc3c2C(=O)c2cccc(c2C3=O)NCCC1 | cell growth or viability, CCK-8 | 1.5 µM, 48 h | – | viability | 23.6% |
| COc1c(Br)cc(CCNC2=CC3=NCCc4c[nH]c(c43)C2=O)cc1Br | cell growth or viability, MTT | 72 h | – | CC50 | 0.6 µM |
| CC(C)C[C@H](NC(=O)[C@@H](NC(=O)[C@H](Cc1ccccc1)NC(=O)c1ccc(C(C)(C)C)cc1)C1CCC1)C(=O)N[C@@H](CCCCN(C)C1CC2CCC1C2)C(=O)N[C@@H](CO)C(=O)NCCOCCOCCCCCCCl (stereo partly drawn) | cell penetration, chloroalkane penetration | 4 h, chloroalkane-tagged compound | – | CP50 | 1.3 ± 0.29 µM |
| N=C(N)NCc1cccc(NC(=O)c2cc(-c3ccccc3)n(-c3ccccc3)n2)c1 | cell growth or viability | – | – | CC50 | 37 µM |

| SMILES | test | setting | how to read | measurement | value |
| --- | --- | --- | --- | --- | --- |
| COc1ccc2ncc(F)c(C[C@H](O)[C@H]3OC[C@H](NCc4cc5c(nn4)OCCS5)CO3)c2n1 | cytotoxicity | 24 h | – | IC50 | > 128 µg/mL |
| CCCN(CCCC[C@H](NC(=O)[C@H](CCCN)NC(=O)[C@@H](NC(=O)[C@H](Cc1ccccc1)NC(=O)c1ccc(C(C)(C)C)cc1)C1CCC1)C(=O)N[C@@H](CO)C(=O)NCCOCCOCCCCCCCl)C1CC2CCC1C2 (stereo partly drawn) | cell penetration, chloroalkane penetration | 4 h, chloroalkane-tagged compound | – | CP50 | 14 ± 3.8 µM |
| COC(=O)c1cc(N(C)S(=O)(=O)c2ccc(OC)cc2)cc(N(C)S(=O)(=O)c2ccc(OC)cc2)c1 | cell growth or viability, XTT | 72 h | – | IC50 | > 100 µM |
| COc1ccc2ncc(F)c(C(O)C[C@H]3OC[C@H](NCc4ccc5c(c4)OCCO5)CO3)c2c1 (stereo partly drawn) | cytotoxicity | 24 h | – | IC50 | > 128 µg/mL |
| CCC(=CCc1c(O)cc2c(c1O)C(=O)CC(c1cc(OC)ccc1O)O2)CC (stereo not drawn) | cytotoxicity, MTT | 48 h, together with: S9 fraction | – | log IC50 | > 2 log µM |
| C[N+]1=C2C=C(NCCc3c[nH]c4ccccc34)C(=O)c3[nH]cc(c32)CC1 | cell growth or viability, MTT | 72 h | – | CC50 | 0.5 µM |
| CC(C)CN(CCCC[C@H](NC(=O)[C@H](CCCN)NC(=O)[C@@H](NC(=O)[C@H](Cc1ccccc1)NC(=O)c1ccc(C(C)(C)C)cc1)C1CCC1)C(=O)N[C@@H](CO)C(=O)NCCOCCOCCCCCCCl)C1CC2CCC1C2 (stereo partly drawn) | cell penetration, chloroalkane penetration | 4 h, chloroalkane-tagged compound | – | CP50 | 13 ± 2 µM |
| NC(=O)c1cccc(NC(=O)c2cc(-c3ccccc3)n(-c3ccc(Br)cc3)n2)c1 | cell growth or viability | – | – | CC50 | > 50 µM |
| COc1cc(NC=O)c(N(C)S(=O)(=O)c2ccc(N(C)C)cc2)cc1OC | cell growth or viability, XTT | 72 h | – | IC50 | 9.4 µM |
| COc1cc(/C=C/C=C2\SC(=S)NC2=O)ccc1O | CellTiter-Glo | 1.25 µM, 24 h, unit not given | relative to: untreated | viability | 1.02 and 0.984 |
| O=C1C(NCCc2ccc(O)c(Br)c2)=CC2=NCCc3c[nH]c1c32 | cell growth or viability, MTT | 72 h | – | CC50 | 1.5 µM |
| Cc1ccc(C(NC(=O)c2cc(-c3ccccc3)n(-c3ccccc3)n2)c2ccncc2)cc1 (stereo not drawn) | cell growth or viability | – | – | CC50 | 48 µM |
| N=C(N)NCCC[C@@H]1NC(=O)[C@H](CCCNC(=N)N)NC(=O)[C@H](CCCNC(=N)N)NC(=O)[C@H](CCCNC(=N)N)NC(=O)[C@H](Cc2ccc3ccccc3c2)NC(=O)[C@H](Cc2ccccc2)NC(=O)CCSSC[C@@H](C(=O)N[C@@H](CCCCNC(=S)Nc2ccc3c(c2)C(=O)OC32c3ccc(O)cc3Oc3cc(O)ccc32)C(N)=O)NC1=O | flow cytometry | concentration not given | relative to: linear peptide | internalisation increase | ~5 fold |
| N=C(N)NCc1cccc(CNC(=O)c2cc(-c3ccccc3)n(-c3ccccc3)n2)c1 | cell growth or viability | – | – | CC50 | > 50 µM |
| COc1ccc2ncc(F)c(C[C@H](O)[C@H]3OC[C@H](NCc4ccc5c(n4)NC(=O)CO5)CO3)c2c1 | cytotoxicity | 24 h | – | IC50 | > 128 µg/mL |
| N=C(N)NCc1ccc(CNC(=O)c2cc(-c3ccccc3)n(-c3ccccc3)n2)cc1 | cell growth or viability | – | – | CC50 | > 50 µM |
| CCC(=CCc1c(O)cc2c(c1O)C(=O)CC(c1cccc(O)c1)O2)CC (stereo not drawn) | cytotoxicity, MTT | 48 h, together with: S9 fraction | – | log IC50 | 1.47 log µM |
| COc1ccc2ncc(F)c(C[C@H](O)[C@H]3OC[C@H](NCc4ccc5c(c4)OCCO5)CO3)c2c1 | cytotoxicity | 24 h | – | IC50 | > 128 µg/mL |
| COc1ccc(NC(=O)c2cc(-c3ccccc3)n(-c3ccccc3)n2)cc1 | cell growth or viability | – | – | CC50 | > 50 µM |

Some of these lines once more:
| SMILES | test | setting | how to read | measurement | value |
| --- | --- | --- | --- | --- | --- |
| C/C1=C/[C@H](C)C[C@H](C)OC(=O)C[C@H](c2ccc(O)cc2)NC(=O)[C@@H](Cc2ccc(O)cc2)N(C)C(=O)[C@H](C)NC(=O)[C@@H](C)C1 | cell growth or viability | – | – | CC50 | 48 µg/mL |
| CCC(=CCc1c(O)cc2c(c1O)C(=O)CC(c1ccc(OC)c(O)c1)O2)CC (stereo not drawn) | cytotoxicity, MTT | 48 h, together with: S9 fraction | – | log IC50 | 1.21 log µM |
| NC(=O)c1cccc(NC(=O)c2cc(-c3ccc(Cl)cc3)n(-c3ccccc3)n2)c1 | cell growth or viability | – | – | CC50 | > 100 µM |
| COc1ccc2nccc(CC[C@H]3OC[C@H](NC(=O)c4ccc(Cl)cc4)CO3)c2c1 | cytotoxicity | 24 h | – | IC50 | 17.7 µg/mL |
| NC[C@H]1O[C@H](O[C@H]2[C@H](O)[C@@H](O[C@H]3O[C@H](Cn4cc(CNC(=S)Nc5ccc6c(c5)C(=O)OC65c6ccc(O)cc6Oc6cc(O)ccc65)nn4)[C@@H](O)[C@H](N)[C@H]3O)[C@H](N)C[C@@H]2N)[C@H](O)[C@@H](O)[C@@H]1O | – | 5 µM, 24 h | – | cytotoxicity | 2 ± 0.3% |
| CCC(=CCc1c(O)cc2c(c1O)C(=O)CC(c1ccc(O)c(OC)c1)O2)CC (stereo not drawn) | cytotoxicity, MTT | 48 h, together with: S9 fraction | – | log IC50 | 1.06 log µM |
